Published values of several laboratories.
Each line is one published result; not all experiments were run side by side. “And” joins repeats or separate records; there may be more than shown.

Structure (SMILES) = CCc1c(-c2ccc3[nH]ncc3c2)cnc(N)c1-c1ccc(O)cc1; cell line = CHP-212 resistant sublines, USP7 V517F heterozygous; setting = 25 µM; endpoint = viability; value = 47.7%
Structure (SMILES) = COC(=O)C1=C(C)Oc2ccc(Br)cc2C1C(C(C)=O)C(=O)OC (stereo not drawn); cell line = 3T3-L1 mature adipocytes; setting = IC20; how to read = relative to: untreated; endpoint = glycerol release; value = 112%
Structure (SMILES) = CC(C)c1ccc(N(C)c2ccc3c(c2)OCC[C@H]3CNc2cnccc2C(=O)O)cc1; cell line = NCI-H1703; test = cell growth or viability, ATP luminescence; setting = 7 days; endpoint = IC50; value = 8.05 nM
Structure (SMILES) = Cn1ncc2cc(-c3cncc(Cl)c3N3CCC4(CCNC4=O)CC3)ccc21; cell line = LS174T; test = gene expression, microarray, refers to: KANK1 mRNA; setting = concentration not given, 24 h; how to read = relative to: untreated cells; endpoint = log2 fold change; value = 2.52
Structure (SMILES) = COc1ccccc1-c1ccncc1C(=O)Nc1nnc(OCc2ccc(Cl)cc2)s1; cell line = MDA-MB-436 BRCA1-mutant; setting = 12 µM; endpoint = colony count; value = 6 and 5 and 12 and 14 and 13
Structure (SMILES) = COc1cc(C(=O)N2CC[C@@H](O)[C@@H](N)C2)cc2nc(-c3cc4cccnc4n3CC3CC3)n(C)c12; cell line = human neutrophils; test = Western blot densitometry, refers to: CitH3 band 6 over GAPDH; setting = 0.1 µM, unit not given, together with: ionomycin 5 µM; how to read = relative to: GAPDH loading control; endpoint = citrullinated histone H3 level; value = 197000 and 171000
Structure (SMILES) = CCC(=CCc1c(O)cc2c(c1O)C(=O)CC(c1ccc(OC)c(O)c1)O2)CC (stereo not drawn); cell line = HeLa; test = cell growth or viability, MTT; setting = 3.125 µM, 48 h; endpoint = inhibition; value = 9.32%
Structure (SMILES) = O=S(=O)(N[C@H]1CCO[C@@H](C2c3ccccc3CCc3ccccc32)C1)c1ccc(OC(F)(F)F)cc1; cell line = D425; test = immunoblot; setting = concentration not given, 24 h; endpoint = cleaved caspase 9 level; value = increased
Structure (SMILES) = Cc1ncsc1-c1ccc(C(C)NC(=O)C2CC(O)CN2C(=O)C(NC(=O)CCCCCCCCCCN2CCCC(Nc3ncc(Cl)c(Nc4ccccc4S(=O)(=O)C(C)C)n3)C2)C(C)(C)C)cc1 (stereo not drawn); cell line = 22Rv1; test = RNA-seq, refers to: RIN2 mRNA; setting = concentration not given; how to read = relative to: DMSO; endpoint = log2 fold change; value = -2.82
Structure (SMILES) = C[C@@H]1CC[C@@H]([C@@](O)(CNCc2ccc(F)cc2)COCc2ccccc2)[C@H](OCc2ccccc2)C1; cell line = A2780; test = cell growth or viability, MTT; setting = 10 µM, 72 h; endpoint = inhibition; value = 93.4%
Structure (SMILES) = CN1CCCNC(=O)c2cccc(c2)C(=O)NCCCN(C)CCCNc2cccc3c2C(=O)c2cccc(c2C3=O)NCCC1; cell line = SAS; test = RNA-Seq, refers to: CHORDC1 mRNA; setting = 1 µM, 6 h; how to read = relative to: untreated cells; endpoint = log2 fold change; value = -1.6
Structure (SMILES) = COC1CCN(C(=O)/C=C/c2nn(Cc3cccc(C(F)(F)F)c3)c3nc(NC(C)C)ncc23)CC1; cell line = OE33; test = cell growth or viability, resazurin; setting = 5 days; endpoint = EC50; value = 4020 nM
Structure (SMILES) = CNS(=O)(=O)Nc1nccc(Cc2c(C)c3ccc(Oc4ncccc4F)cc3oc2=O)c1F; cell line = P116; test = cell viability, CellTiter-Glo; setting = 7 days; endpoint = IC50; value = > 1000 nM
Structure (SMILES) = O=C(C[Se]C(=O)c1cc2ccccc2[nH]1)Nc1cccc(C(F)(F)F)c1; cell line = NCI60 NSCLC subpanel mean; test = cell growth; endpoint = TGI; value = 2700 nM
Structure (SMILES) = CC(Br)C(=O)NC12CCCC(C)(CCC3C1CC3(C)C)C2 (stereo not drawn); cell line = HT-29; test = cell growth or viability, CCK-8; setting = 10 µM; endpoint = inhibition; value = < 50%
Structure (SMILES) = CC(=O)N[C@@H](Cc1ccc(O)cc1)C(=O)N1CSC[C@H]1C(=O)N[C@@H](C)C(=O)N[C@@H](CC(=O)O)C(=O)COC(=O)c1c(C)cccc1C; cell line = THP-1 cells expressing FKBP-caspase-4; test = pyroptosis, inhibitor; setting = concentration not given, together with: B/B dimerizer; endpoint = LDH release; value = 72.3% and 72.2% and 73.3%
Structure (SMILES) = CCN(CC)CC(=O)Nc1cccc(-n2cc(-c3ccc4ccc(-c5cn(-c6cccc(NC(=O)CN(CC)CC)c6)nn5)cc4c3)nn2)c1; cell line = RCC4; test = PCR angiogenesis array, refers to: MMP2; setting = 5 x IC50, 2 h, normoxia; how to read = relative to: untreated; endpoint = fold regulation; value = 2.11
Structure (SMILES) = CC12CCCC(NS(=O)(=O)c3ccccc3N)(C1)C1CC(C)(C)C1CC2 (stereo not drawn); cell line = HT-29; test = cell growth or viability, CCK-8; setting = 50 µM; endpoint = inhibition; value = 100%

Excerpt of the above:
Structure (SMILES) = CC12CCCC(NS(=O)(=O)c3ccccc3N)(C1)C1CC(C)(C)C1CC2 (stereo not drawn); cell line = HT-29; test = cell growth or viability, CCK-8; setting = 50 µM; endpoint = inhibition; value = 100%
Structure (SMILES) = CCN(CC)CC(=O)Nc1cccc(-n2cc(-c3ccc4ccc(-c5cn(-c6cccc(NC(=O)CN(CC)CC)c6)nn5)cc4c3)nn2)c1; cell line = RCC4; test = PCR angiogenesis array, refers to: MMP2; setting = 5 x IC50, 2 h, normoxia; how to read = relative to: untreated; endpoint = fold regulation; value = 2.11
